Measurements from different studies.
Each numbered part is a random draw from the data of one study; scales do not carry over between parts. Positions count from the first letter of the parent shown.

Set 1
Target: RNA binding protein fox-1 homolog 2, RRM domain, GST-SBP tag (RBFOX2, Homo sapiens, UniProt O43251-10, residues 100-194)
Technique: RNA Bind-n-Seq
Molecule type: RNA
Medium: in vitro
Concentration: 365 nM
Notes: natural RNA segment, single round, ends assumed
Relative to: no-protein control
Reading: higher = stronger binding
Constant ends, left off below: GGGAGUUCUACAGUCCGACGAUC … UGGAAUUCUCGGGUGCCAA
Target sequence (chain): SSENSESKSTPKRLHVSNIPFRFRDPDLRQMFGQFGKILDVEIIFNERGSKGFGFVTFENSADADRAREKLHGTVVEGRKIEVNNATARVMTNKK
For `CCGAGGGUUAAGCUGGUUUAGCAGGUCAUUGCUCAGCUUUGCUUGUCUCCCUGGGCAAGGGAAGGGGACCAGGAGAAAGGUGAUGAGGCCCCAGGGACUCCUGUCAUCUG`, “RBNS enrichment (R)” read 0.583.
For `GGGACAUUGAGUGACAAGCCUCAGAAUGUUACAGAGGUAAAGUGAGGCAUCUCAAAUCCACUGACAGAUAAGAAAACCGCGUUAGAGGGAAAGUCACCUCUGCUAUUGUA`, “RBNS enrichment (R)” read 8.21.
Under “RBNS enrichment (R)”, `GGGACAUAGUAUGUGACAAUCUGCAUCGAUCAUGGACUACUAAAUGCCUUUACAUAGAAGGGCUCUGAUUUGCACAAUUUGUUGAAAAAUCACAAACCCAUAGAAAAGUA` is recorded as 0.318.
`ACAGCCCAGGUCACACGUGGGGUCAGCAGAGGUACCACGAAGCUACCUUUUGGGAUGAUUGCUCGAUUGUUUGGUUUUUAAAUCUGAGAAGCCUAGAUAACUAAUCUGCU` — result for “RBNS enrichment (R)”: 0.347.
Under “RBNS enrichment (R)”, `CACUGUUUCUUAAUUUUAUUGUUGUAUUCAUAUAUGUAGGAUUUGAAAUAUUGUGAUGCCCACCACGUCUGUAUUUCUUCUCUACUCCCCAGUCUUAACGUUUAUCUUUG` is recorded as 0.589.
`CAUUUCAGCACCUCCAAAGGGUCCUAGGAUAUUCUGCCUCUCUCUUCACCCUGUCCCCAGACGGGGGAACCCGUGGGUCAGGCGUGGAUAAGCCUGCGAGAAUACACCCU` — result for “RBNS enrichment (R)”: 1.23.
For `AACUCUUUCUAGCCCUUUUAGAUUUUGGCACUGUGAAACCCCUGCUGGAAACCUGAGUGACCCUCCCUCCCCACCAAGAGUCCACAGACCUUUCAUCUUUCACGAACUUG`, “RBNS enrichment (R)” read 0.614.
Under “RBNS enrichment (R)”, `AAAGAAAAAUACAAGACAAAAACCUUCUAGCACUUUGUAAACACAGUGAAUAACCUCUUGGAGUAUUUUUGGCUUUAUAUAAAACAAGGUUUUUAAUUGUAAAAUAUAAG` is recorded as 0.742.

Set 2
Target: ABI1, truncated, D143A, DHFR fusion (Arabidopsis thaliana)
Technique: DHFR PCA, deep sequencing
Medium: yeast
Notes: methotrexate growth selection, single substitutions
Added: (+)-ABA 4.8 µM
Relative to: wild-type fitted maximum
Reading: higher = stronger binding
Parent: PYL1, truncated, DHFR fusion (Arabidopsis thaliana); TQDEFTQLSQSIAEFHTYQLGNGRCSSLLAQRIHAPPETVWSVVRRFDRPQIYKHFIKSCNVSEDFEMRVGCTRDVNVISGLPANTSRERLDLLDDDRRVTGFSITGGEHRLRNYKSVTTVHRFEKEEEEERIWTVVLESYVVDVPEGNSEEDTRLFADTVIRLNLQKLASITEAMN; partner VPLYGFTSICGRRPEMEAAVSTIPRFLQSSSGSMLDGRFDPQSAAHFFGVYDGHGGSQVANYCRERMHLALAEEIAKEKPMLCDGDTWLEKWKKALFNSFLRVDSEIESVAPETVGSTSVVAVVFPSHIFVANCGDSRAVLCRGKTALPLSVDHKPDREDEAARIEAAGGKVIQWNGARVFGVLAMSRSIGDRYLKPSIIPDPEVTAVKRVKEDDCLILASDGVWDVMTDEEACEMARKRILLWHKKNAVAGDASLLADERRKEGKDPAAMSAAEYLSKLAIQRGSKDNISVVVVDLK
For `V62F`, “relative binding score” read 30%.
Under “relative binding score”, `N77E` is recorded as 82.9%.
For `E4K`, “relative binding score” read 43.4%.
For `D159I`, “relative binding score” read -4.83%.
For `H16Q`, “relative binding score” read -1.63%.
`F157P`: “relative binding score” -0.527%.
`Q167R` — result for “relative binding score”: 87.5%.
Under “relative binding score”, `F5N` is recorded as 43.2%.
`L28M`: “relative binding score” 71.4%.
Under “relative binding score”, `D153F` is recorded as 2.55%.
For `Q51S`, “relative binding score” read 7.14%.
For `G107K`, “relative binding score” read 0.165%.
`E14Q` — result for “relative binding score”: 57.7%.
For `I172A`, “relative binding score” read 20%.
For `L91G`, “relative binding score” read 6.3%.
Under “relative binding score”, `D75S` is recorded as 71.1%.

Set 3
Target: CCND1, cyclin fold, Cln2 fusion (human)
Technique: yeast growth competition, sequencing
Medium: yeast
Notes: weak parent motif
Relative to: not given
Reading: higher = stronger binding
Parent: BRCA2 docking peptide (human); PSIKRNLLNEFDR
`PSIKRNLLNENDR [F11N]` — result for “normalised enrichment score”: -1.
`ISIKRNLLNEFDR [P1I]`: “normalised enrichment score” 0.274.
`PSIKRNLLNEFGR [D12G]` — result for “normalised enrichment score”: 0.308.
Under “normalised enrichment score”, `PSIKRNLLNEFCR [D12C]` is recorded as 0.307.
For `PSIKANALNEFDR [R5A L7A]`, “normalised enrichment score” read 0.133.
For `PSIKRLLLNEFDR [N6L]`, “normalised enrichment score” read 0.0335.
`FSIKRNLLNEFDR [P1F]`: “normalised enrichment score” 0.064.
Under “normalised enrichment score”, `PSSKRNLLNEFDR [I3S]` is recorded as 0.524.
For `PSPKRNLLNEFDR [I3P]`, “normalised enrichment score” read 0.994.
Under “normalised enrichment score”, `PSIKRNLLNHFDR [E10H]` is recorded as 0.324.
Under “normalised enrichment score”, `PYIKRNLLNEFDR [S2Y]` is recorded as 0.317.
`PSIKRNLLNEMDR [F11M]`: “normalised enrichment score” -0.105.
`PSIKRNRLNEFDR [L7R]` — result for “normalised enrichment score”: -0.0392.
`PSIKRNLLDEFDR [N9D]` — result for “normalised enrichment score”: 1.31.
For `PSTKRNLLNEFDR [I3T]`, “normalised enrichment score” read 0.467.
`PSIKRNLLNEFDL [R13L]` — result for “normalised enrichment score”: 0.392.
`PSIKRNLLNEFRR [D12R]` — result for “normalised enrichment score”: 0.638.
Under “normalised enrichment score”, `PSIKFNLLNEFDR [R5F]` is recorded as -0.256.
`PSIKGNLLNEFDR [R5G]`: “normalised enrichment score” -0.115.
`PSIKVNLLNEFDR [R5V]`: “normalised enrichment score” 0.219.
Under “normalised enrichment score”, `PSIKRGLLNEFDR [N6G]` is recorded as 0.0676.
Under “normalised enrichment score”, `PSIKRNLLNEFDC [R13C]` is recorded as 0.624.
Under “normalised enrichment score”, `CSIKRNLLNEFDR [P1C]` is recorded as 1.13.
`GSIKRNLLNEFDR [P1G]` — result for “normalised enrichment score”: 0.422.

Set 4
Target: Interferon regulatory factor 5, full length, phosphomimetic (IRF5, Homo sapiens, UniProt Q13568-2, residues 1-514, S451D/S453D/S456D/S462D)
Technique: protein-binding microarray
Molecule type: double-stranded DNA, one strand shown
Medium: in vitro
Concentration: 940 nM top
Notes: 60-bp whole probe
Added: salmon DNA 0.4 mg/ml
Relative to: random background probes
Reading: higher = stronger binding
Constant ends, left off below: GCCTAGCAC … GTCTTGATTCGCTTGACGCTGCTG
Under “fitted relative affinity”, `TCACCCCTCTCTTTCCAACTGTGCTAG` is recorded as 1.02 z-score.
For `TTAGGACTGCTTCTCCTTTTGTGCTAG`, “fitted relative affinity” read -0.277 z-score.
For `TTAGATTTCGGCTATCGATTAGTGCTA`, “fitted relative affinity” read 1.12 z-score.
`TTAGATGTCAGTATCGATTAGTGCTAG`: “fitted relative affinity” 4.95 z-score.
`TTACGTCTCCTTTTCCTTTAGTGCTAG` — result for “fitted relative affinity”: 1.53 z-score.
`TATGTTCACTATTTAAGACCGTGCTAG`: “fitted relative affinity” 0.181 z-score.
`TTAGGTATCCTTATCATTTAGTGCTAG`: “fitted relative affinity” 0.718 z-score.
Under “fitted relative affinity”, `CTAGATTTCGGGACTGGATTAGTGCTA` is recorded as 0.403 z-score.
Under “fitted relative affinity”, `TTAGGTATCGGGTACCGGTTAGTGCTA` is recorded as 6.75 z-score.
For `GACGGTTTGGGGTATCGGGACGTGCTA`, “fitted relative affinity” read 0.902 z-score.
`TACGGTTTCGGGACTGGGGACGTGCTA` — result for “fitted relative affinity”: 6.34 z-score.
For `TTAGGTATCCTTATCCGTTAGTGCTAG`, “fitted relative affinity” read 0.34 z-score.
For `GTGTATATGTGATTAAAATAGTGCTAG`, “fitted relative affinity” read 0.186 z-score.
`ACAAGTTTCTCCTTTCGGAAGTGCTAG`: “fitted relative affinity” 3.77 z-score.
`TATTATATCTGTGTTATTAAGTGCTAG` — result for “fitted relative affinity”: 0.423 z-score.
`TCAATTTCTGTTTTTGCACTGTGCTAG` — result for “fitted relative affinity”: 1.5 z-score.
`TCATTTTTTCTAATTGAACTGTGCTAG` — result for “fitted relative affinity”: 0.697 z-score.
`TTAGAACTCAGTATCGATTAGTGCTAG`: “fitted relative affinity” 4.53 z-score.
For `TTAGGTTCCCGTTTCCTTTAGTGCTAG`, “fitted relative affinity” read 0.947 z-score.

Repeated from above (set 2):
`L28M`: “relative binding score” 71.4%.
Under “relative binding score”, `D153F` is recorded as 2.55%.
For `Q51S`, “relative binding score” read 7.14%.
For `G107K`, “relative binding score” read 0.165%.
